Experimental data collected from several papers.
A part holds a random share of what one study measured. Changes are numbered by the printed parent chain.

Study 1
Target: Ras GTPase-activating protein-binding protein 1, full length (G3BP1, Homo sapiens, UniProt Q13283)
Sequence of UniProt Q13283 (whole entry, looked up): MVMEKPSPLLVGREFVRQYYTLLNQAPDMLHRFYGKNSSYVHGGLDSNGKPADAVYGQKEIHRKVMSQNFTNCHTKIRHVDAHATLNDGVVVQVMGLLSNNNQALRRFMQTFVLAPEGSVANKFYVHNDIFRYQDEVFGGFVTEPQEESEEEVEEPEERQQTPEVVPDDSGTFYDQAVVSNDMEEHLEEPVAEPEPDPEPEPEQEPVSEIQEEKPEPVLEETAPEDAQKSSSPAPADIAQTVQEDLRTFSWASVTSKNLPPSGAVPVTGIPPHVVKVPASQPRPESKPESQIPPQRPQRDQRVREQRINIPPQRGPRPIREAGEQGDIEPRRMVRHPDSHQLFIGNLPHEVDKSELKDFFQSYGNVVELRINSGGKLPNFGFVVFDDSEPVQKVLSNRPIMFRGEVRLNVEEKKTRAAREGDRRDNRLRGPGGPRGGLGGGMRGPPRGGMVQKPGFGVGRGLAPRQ
Method: RNA Bind-n-Seq
Molecule type: RNA
Sample: in vitro
Tested at: 200 nM
Notes: whole 134-nt RNA, ends assumed
Together with: 150 mM KCl
Reference: input library
Direction: higher = stronger binding
For `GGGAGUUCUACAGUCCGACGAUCAGUCCUGUGCUACACAUCGUAUGUACCGAAUCGGGGAAAGGGGUUUGGGGUUUGGGGAAAGUAUUAUGUUACGCCGUUCGGAUCUGCACUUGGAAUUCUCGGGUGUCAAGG`, the log2 enrichment was 0.488.
`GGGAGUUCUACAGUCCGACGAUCAAGUCCUGUGCUACACAUCGUAUGUACCGAAUCAAAUUUAAACCCCCAAAUUUAAAAAAGUAUUAUGUUACGCCGUUCGGAUCUGCACUUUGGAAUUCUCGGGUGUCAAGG` has a log2 enrichment of -0.289.
`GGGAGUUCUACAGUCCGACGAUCAGUCCUGUGCUACACAUCGUAUGUACCGAAUCGGGGUUUUUGGGUUUUUGGUUUUUGGAAAGUAUUAUGUUACGCCGUUCGGAUCUGCACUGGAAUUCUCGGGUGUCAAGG` gave a log2 enrichment of -0.821.
`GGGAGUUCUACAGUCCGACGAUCGUCCUGUGCUACACAUCGUAUGUACCGAAUCGGGAAAGGGUUUUUGGGUUUUUUUGGGAAAGUAUUAUGUUACGCCGUUCGGAUCUGCACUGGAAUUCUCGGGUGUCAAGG` has a log2 enrichment of -0.491.
The log2 enrichment of `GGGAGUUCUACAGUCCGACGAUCUCCUGUGCUACACAUCGUAUGUACCGAAUCGGGGAAAAAAAGGGGAAAAAGGGGUGGGGAAAGUAUUAUGUUACGCCGUUCGGAUCUGCAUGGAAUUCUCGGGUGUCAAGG` is reported as 0.56.

Study 2
Target: TAR DNA-binding protein 43, full length, His tag (TARDBP, Homo sapiens, UniProt Q13148, residues 1-414)
Method: RNA Bind-n-Seq
Molecule type: RNA
Sample: in vitro
Tested at: 20 nM
Notes: 6-mer, flanks averaged, single round
Together with: 150 mM KCl
Reference: input library
Direction: higher = stronger binding
`UUAUUG` — result for “6-mer enrichment (R)”: 0.656.
For `UCGCAC`, “6-mer enrichment (R)” read 0.648.
For `UACUUA`, “6-mer enrichment (R)” read 0.575.
`GGGCGU`: “6-mer enrichment (R)” 3.49.
Under “6-mer enrichment (R)”, `GCCGGC` is recorded as 1.45.
`AGAAAA`: “6-mer enrichment (R)” 0.693.
`GUUCGU`: “6-mer enrichment (R)” 0.732.
`AAGAAA`: “6-mer enrichment (R)” 0.744.
`ACUAAC`: “6-mer enrichment (R)” 0.616.
`CGGCAC`: “6-mer enrichment (R)” 0.927.
`AAUGCU`: “6-mer enrichment (R)” 0.665.
Under “6-mer enrichment (R)”, `CACCUG` is recorded as 0.663.
`CUCGAC` — result for “6-mer enrichment (R)”: 0.604.
Under “6-mer enrichment (R)”, `AAAGCA` is recorded as 0.643.
Under “6-mer enrichment (R)”, `AUCUUC` is recorded as 0.524.
`UAACUC`: “6-mer enrichment (R)” 0.588.
`GGAUGU`: “6-mer enrichment (R)” 1.49.

Study 3
Target: ABI1, truncated, D143A, DHFR fusion (Arabidopsis thaliana)
Method: DHFR PCA, deep sequencing
Sample: yeast
Notes: methotrexate growth selection, single substitutions
Together with: (+)-ABA 0.39 µM
Reference: wild-type fitted maximum
Direction: higher = stronger binding
Parent: PYL1, truncated, DHFR fusion (Arabidopsis thaliana); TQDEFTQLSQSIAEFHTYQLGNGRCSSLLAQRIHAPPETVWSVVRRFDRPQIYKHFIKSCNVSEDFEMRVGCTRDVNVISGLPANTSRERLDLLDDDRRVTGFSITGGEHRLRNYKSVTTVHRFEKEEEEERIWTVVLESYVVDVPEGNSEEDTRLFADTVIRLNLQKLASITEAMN; partner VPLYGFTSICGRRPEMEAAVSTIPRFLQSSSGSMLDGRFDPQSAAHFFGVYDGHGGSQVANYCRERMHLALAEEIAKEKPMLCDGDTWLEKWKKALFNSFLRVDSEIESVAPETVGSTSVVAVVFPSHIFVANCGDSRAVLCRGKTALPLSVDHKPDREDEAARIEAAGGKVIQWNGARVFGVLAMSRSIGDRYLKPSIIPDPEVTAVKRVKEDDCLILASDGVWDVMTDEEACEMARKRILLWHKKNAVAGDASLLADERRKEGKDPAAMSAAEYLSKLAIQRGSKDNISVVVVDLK
Under “relative binding score”, `H16V` is recorded as -1.73%.
Under “relative binding score”, `I52L` is recorded as 48.6%.
For `V145D`, “relative binding score” read 1.65%.
For `T73E`, “relative binding score” read 51.2%.
Under “relative binding score”, `F157M` is recorded as 19.1%.
For `R74K`, “relative binding score” read -20.9%.
Under “relative binding score”, `T73D` is recorded as 0.171%.
For `G21M`, “relative binding score” read 30.9%.
Under “relative binding score”, `G21D` is recorded as 46.8%.
`F103D` — result for “relative binding score”: -4.23%.
`I162T` — result for “relative binding score”: 18.2%.
Under “relative binding score”, `G148M` is recorded as -19.4%.
`E139K` — result for “relative binding score”: 12.9%.
Under “relative binding score”, `L156R` is recorded as 10.9%.
`L156Q`: “relative binding score” 8.21%.

Study 4
Target: Centromere-binding protein 1, full length, His-tagged (CBF1, Saccharomyces cerevisiae, UniProt P17106, residues 1-351)
Sequence of UniProt P17106 (whole entry, looked up): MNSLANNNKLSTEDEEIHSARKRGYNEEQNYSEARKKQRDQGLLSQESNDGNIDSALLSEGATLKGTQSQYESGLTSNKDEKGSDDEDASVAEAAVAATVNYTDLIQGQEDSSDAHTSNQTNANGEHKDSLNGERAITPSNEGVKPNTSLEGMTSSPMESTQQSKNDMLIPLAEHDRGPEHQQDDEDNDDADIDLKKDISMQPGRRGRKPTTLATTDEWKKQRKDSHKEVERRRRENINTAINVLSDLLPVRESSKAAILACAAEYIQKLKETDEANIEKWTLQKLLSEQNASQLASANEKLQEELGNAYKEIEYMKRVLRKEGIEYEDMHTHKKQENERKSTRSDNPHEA
Method: competition protein-binding microarray
Molecule type: double-stranded DNA, one strand shown
Sample: in vitro
Tested at: 2 µM
Notes: whole 60-bp probe, lowest competitor level
Together with: Pho4 competitor, 0.05 µM
Direction: higher = stronger binding
`CATACCCAACCTTGTGTAGTGGGTGAAGATATTTGTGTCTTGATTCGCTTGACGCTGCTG` gave a fluorescence intensity of 72.3 a.u.
With `CACTGACTCAGCAGACACGTGGCTGGGCTCAGGCTGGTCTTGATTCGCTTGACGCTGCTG` the fluorescence intensity was 764 a.u.
`GCAATTGGATCTCACCACGTGGATTTAAAGATGGACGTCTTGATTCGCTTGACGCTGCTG` gave a fluorescence intensity of 1020 a.u.
`ACAACCATCTATGATGACGTGTTGACATTATCAAACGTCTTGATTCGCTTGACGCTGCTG` has a fluorescence intensity of 95.2 a.u.
The fluorescence intensity of `AGTATCCTCGACCTACACGTCTTCACCATCAGCACCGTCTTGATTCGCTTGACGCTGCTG` is reported as 64.6 a.u.
`AATTGAAGTGCGAGTCACGTGCAAAGCGACGGTAGTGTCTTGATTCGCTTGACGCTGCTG` has a fluorescence intensity of 6740 a.u.
With `TGCGCAACAACTTGCTGCGTGGGTGTATGTCTAGAAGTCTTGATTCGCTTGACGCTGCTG` the fluorescence intensity was 63.7 a.u.
`TAACGTTCGTCGGGACATATGACTTGAAAAATGTCCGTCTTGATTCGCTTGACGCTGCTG` gave a fluorescence intensity of 180 a.u.
The fluorescence intensity of `GTCTTGTCTCATTGATCTGTGGGTGTCCCCACTTCAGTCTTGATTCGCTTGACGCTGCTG` is reported as 75.5 a.u.
`CATACCCAACCTTGTCACGTGTTTTAAGATATTTGTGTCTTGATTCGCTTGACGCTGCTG` gave a fluorescence intensity of 7290 a.u.
`TTTTTCCTAACTTGCGACATGACAGAGCTTAAGGACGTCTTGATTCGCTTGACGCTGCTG` gave a fluorescence intensity of 75.2 a.u.
The fluorescence intensity of `CATACCCAACCTTGTTACGTGGGTGAAGATATTTGTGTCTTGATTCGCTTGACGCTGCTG` is reported as 72.2 a.u.
With `AGGGTGGTATGGATACACGGGAAGCTGGGTGCTGCAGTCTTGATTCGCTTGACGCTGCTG` the fluorescence intensity was 83.7 a.u.
For `TATTACGCCTGCAACCCCGTGCTAAGCTAGAATGTCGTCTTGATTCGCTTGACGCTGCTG`, the fluorescence intensity was 211 a.u.

Study 5
Target: Histone acetyltransferase KAT6A, both winged helices, GST fusion (KAT6A, Homo sapiens, UniProt Q92794, residues 1-181)
Method: protein binding microarray
Molecule type: double-stranded DNA, one strand shown
Sample: in vitro
Tested at: not given
Notes: 8-mer, flanks averaged, mean of 2 arrays, mostly near background
Reference: not given
Direction: higher = stronger binding
Residues (chain): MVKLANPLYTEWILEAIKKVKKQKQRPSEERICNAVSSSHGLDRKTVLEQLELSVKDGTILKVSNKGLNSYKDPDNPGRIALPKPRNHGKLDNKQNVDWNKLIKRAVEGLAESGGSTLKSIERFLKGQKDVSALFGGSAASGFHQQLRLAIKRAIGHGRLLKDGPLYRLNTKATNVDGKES
The E-score of `AAAAATAC` is reported as -0.11.
`AATGTTCC` gave an E-score of -0.00071.
`GTCAGGAC` has an E-score of -0.128.
The E-score of `ATTACTCC` is reported as -0.143.
With `CCCGTTAC` the E-score was 0.151.
The E-score of `GAGCACTC` is reported as -0.12.
With `CCTGGGGA` the E-score was -0.324.
`AGCTCCTG` has an E-score of -0.0812.
`GGAAAGAA` has an E-score of -0.142.
`ACTCGTCT` has an E-score of -0.163.
The E-score of `CTCCAGAC` is reported as -0.133.
The E-score of `GTTGAGGA` is reported as -0.0449.
The E-score of `CTCTGTTA` is reported as -0.12.
With `GAGTGGCA` the E-score was -0.147.

Study 6
Target: CCNF, cyclin fold, Cln2 fusion (human)
Method: yeast growth competition, sequencing
Sample: yeast
Notes: strong parent motif
Reference: not given
Direction: higher = stronger binding
Parent: SLBP docking peptide (human); ARYKRKLLINDFG
`ARYKRKNLINDFG [L7N]`: “normalised enrichment score” 1.25.
`ATYKRKLLINDFG [R2T]` — result for “normalised enrichment score”: 2.71.
`ARYKRKLLIDDFG [N10D]` — result for “normalised enrichment score”: 2.13.
Under “normalised enrichment score”, `ARYKRKLLINNFG [D11N]` is recorded as 1.63.
For `ARYKRKLLINDVG [F12V]`, “normalised enrichment score” read 1.05.
For `ARYKRKLLINDFP [G13P]`, “normalised enrichment score” read 2.02.
For `ARCKRKLLINDFG [Y3C]`, “normalised enrichment score” read 3.6.
`AREKRKLLINDFG [Y3E]` — result for “normalised enrichment score”: 0.881.
`ARYKRKLLINDFW [G13W]`: “normalised enrichment score” 1.65.
`ARYKRKDLINDFG [L7D]`: “normalised enrichment score” 1.23.
Under “normalised enrichment score”, `ARYKRKRLINDFG [L7R]` is recorded as 0.903.
Under “normalised enrichment score”, `ARYKWKLLINDFG [R5W]` is recorded as 1.51.
Under “normalised enrichment score”, `ARYRRKLLINDFG [K4R]` is recorded as 1.28.
Under “normalised enrichment score”, `ARYKRKLLINFFG [D11F]` is recorded as 2.34.
`ARYKRKLLINDTG [F12T]`: “normalised enrichment score” 0.1.

Some of these lines once more (study 5):
With `CCCGTTAC` the E-score was 0.151.
The E-score of `GAGCACTC` is reported as -0.12.
With `CCTGGGGA` the E-score was -0.324.
`AGCTCCTG` has an E-score of -0.0812.
`GGAAAGAA` has an E-score of -0.142.
`ACTCGTCT` has an E-score of -0.163.
The E-score of `CTCCAGAC` is reported as -0.133.
The E-score of `GTTGAGGA` is reported as -0.0449.
The E-score of `CTCTGTTA` is reported as -0.12.
